Assay results pooled from the literature.
Lines come from different studies, so protocols differ. Numbers after ± are the reported error.

Compound	test	test system	conditions	remaining compound
O=Cc1cc2ccccc2cc1C=O		HEPES buffer	1 mM, 20 h, pH 7.4, 10% acetonitrile	60%
O=C(N1CCCCC1)C12CC(c3ccccc3)(C1)C2		pooled human liver microsomes	2 µM, 40 min, without NADPH	105%
O=C(Oc1coc(CSc2ncccn2)cc1=O)c1ccc([N+](=O)[O-])cc1		RPMI with 10% FBS	100 µM, 2 day	< 10%
FC(F)=Cc1cc(C(F)(F)F)cc(C(F)(F)F)c1		HEPES buffer	1 mM, 20 h, pH 7.4, 10% acetonitrile	2%
CSc1ncc(Br)c(C(=O)N[C@@H](CCC(=O)O)C(=O)N[C@@H](Cc2ccc3ccccc3c2)C(=O)N[C@@H](CC(C)C)C(=O)N[C@@H]2C[C@H]2c2ccccc2)n1		pooled human plasma	0 min, 37 °C	100%
NC(=O)c1ccccc1NC(=O)c1ccc(-c2ccccc2)cc1		human plasma	2 µM, 2 h, 37 °C	103%
O=C(O)c1ccc(-c2cc(NCCCN3CCCCC3)c3ccccc3n2)cc1		human liver microsomes	1 h	100%
CN1CCN(C(=O)[C@H](CCCN[C@@H]2C[C@H]2c2ccc(F)cc2)NC(=O)c2ccc(-n3ccnn3)cc2)CC1		aqueous buffer	4 days, 37 °C	95%
CCOc1ccc2ccc(=O)oc2c1		mouse liver microsomes	1 µM, 20 min, pH 7.4	0.6%
COc1ccc2[nH]c([S+]([O-])Cc3ncc(C)c(OC)c3C)nc2c1 (stereo not shown)		simulated gastric fluid with pepsin	1 µM, 60 min, pH 1.2	0%
Cc1cc2ccccc2n1CCNC(=O)c1ccc(N2CCCCC2)cc1		mouse liver microsomes	60 min	> 7%
CC[N+]1(C)CCN(c2ccc(NC(=O)c3cccc(C)n3)cc2)CC1		pooled BALB/c mouse plasma	1 µM, 2 h	105%
NCc1cc2c(cc1F)C(=O)N(C1CCC(=O)NC1=O)C2 (stereo not shown)		male New Zealand White rabbit, whole blood	3 h, without inhibitor	< 1%
CC[C@H](C)C(=O)O[C@H]1C[C@@H](C)C=C2C=C[C@H](C)[C@H](CC[C@@H]3C[C@@H](O)CC(=O)O3)[C@H]21		mouse liver microsomes	30 min	not detected
CC(C)=CCC[C@](C)(O[C@@H]1O[C@H](CO[C@@H]2O[C@H](CO)[C@@H](O)[C@H](O)[C@H]2O)[C@@H](O)[C@H](O)[C@H]1O)[C@H]1CC[C@]2(C)[C@@H]1[C@H](O)C[C@@H]1[C@@]3(C)CC[C@H](O[C@@H]4O[C@H](CO)[C@@H](O)[C@H](O)[C@H]4O[C@@H]4O[C@H](CO)[C@@H](O)[C@H](O)[C@H]4O)C(C)(C)[C@@H]3CC[C@]12C		rat plasma	1 ng/mL, 24 h, room temperature	98 ± 3.9%
Cc1ccc2c(c1)C(=O)[C@]1(O)CCN(c3ccc4nc(C)ccc4c3)C1=N2.Cl		DMEM culture medium, 0.5% FBS	10 µM, 72 h, 37 °C, no vitamin C	> 90%
CC(C(=O)Nc1c(F)cccc1F)N1CCN(c2ccccc2)CC1 (stereo not shown)		mouse plasma	1 µM, 4 h, 37 °C	~91.5%
Cc1cc(Oc2ncccc2CN2CCN(c3ncccc3C(F)(F)F)CC2)ccc1-c1c(C)c(=O)[nH]c(=O)n1C		rat plasma	1 µM, 2 h	87%
C=CC(=O)Nc1cccc(-n2nc3c(=O)[nH]nc(N)c3c2-c2oc3ccc(C)cc3c2C)c1		BALB/c nude mouse whole blood	1 µM, 1 h, 37 °C	65.8%
CO[C@@H](C[C@H]1C(C)=CC[C@@H]2[C@]3(C)C[C@H](O[C@@H]4O[C@@H](C)[C@H](OC(=O)c5cccc(O)c5)[C@@H](O[C@@H]5O[C@H](CO)[C@@H](O)[C@H](O)[C@H]5NC(C)=O)[C@H]4O)[C@@H](O)C(C)(C)[C@H]3CC[C@]21C)[C@H](N)C(=O)O.O=C(O)C(F)(F)F		simulated gastric fluid with pepsin	1 µM, 0 min, pH 1.2	100%
CCOC(=O)C1=C(CN2CCC[C@@H]2C(=O)Nc2ccc(B(O)O)cc2)NC(c2nccs2)=N[C@H]1c1ccc(F)cc1Br		human liver microsomes	1 µM, 60 min, pH 7.4	78%
CCOC(=O)[C@H](CCc1ccccc1)N[C@@H](C)C(=O)N1CCC[C@H]1C(=O)O		human plasma	10 µM, 30 min	92.7%

Compound	test	test system	conditions	remaining compound
CC(C)=CCC[C@](C)(O[C@@H]1O[C@H](CO)[C@@H](O)[C@H](O)[C@H]1O)[C@H]1CC[C@]2(C)[C@@H]1[C@H](O)C[C@@H]1[C@@]3(C)CC[C@H](O[C@@H]4O[C@H](CO)[C@@H](O)[C@H](O)[C@H]4O[C@@H]4O[C@H](CO)[C@@H](O)[C@H](O)[C@H]4O)C(C)(C)[C@@H]3CC[C@]12C		rat plasma	5 ng/mL, 24 h, room temperature	108 ± 7.5%
N#C[C@@]12C[C@@H]1[C@@H](n1cnc3c(N[C@@H](C4CCC4)C4CC4)nc(I)nc31)[C@H](O)[C@@H]2O	plasma stability	mouse plasma	120 min	94.4%
Cc1cc2ccccc2n1CCNC(=O)c1ccc(N2CCCC2)cc1		mouse liver microsomes	60 min	> 7%
Cc1nc2ccc(OCc3ccc(C(F)(F)F)cc3)cc2[nH]1		human liver S9	1 µM, 90 min, pH 7.4	76%
Nc1nc2c(ncn2[C@@H]2O[C@@H]3COP(=O)(O)O[C@H]4[C@@H](O)[C@H](n5cnc6c(N)ncnc65)O[C@@H]4COP(=O)(O)O[C@H]2[C@@H]3O)c(=O)[nH]1	LC-MS	human serum	24 h	80%
N[C@H]1CC[C@H](N[C@@H]2C[C@H]2c2ccccc2)CC1		aqueous buffer	0 days, 37 °C	99%
C=CC(=O)N1CCC(C(=O)NCC(=O)N2CCN(c3nc(-c4cnc(N)nc4C(F)F)nc(N4CCOCC4)n3)CC2)CC1		microsomes, rat liver, male, Sprague-Dawley	1 µM, 60 min, 0.5 mg/mL microsomal protein, with: NADPH	96.5%
C[C@]1(C(=O)[C@H](CC2=CCCC2)NC(=O)[C@@H]2Cc3ccc(cc3)OCCCCCCCC(=O)N3CCC[C@H]3C(=O)N2)CO1		human liver microsomes	60 min	not detected
CNc1cc[n+](CCNC(=O)c2ccn3c(-c4c(C)noc4C)cnc3c2)cc1.[Cl-]		0.1 M HCl	initial, pH 1	100 % peak area
CC[C@H](C)[C@@H]([C@@H](CC(=O)N1CCC[C@H]1[C@H](OC)[C@@H](C)C(=O)N[C@@H](Cc1ccccc1)C(=O)NCCCO)OC)N(C)C(=O)[C@@H](NC(=O)[C@H](C(C)C)N(C)C)C(C)C		human whole blood	1 µM, 120 min	55%
COc1ccc2cc3[n+](cc2c1OC)CCc1cc2c(cc1-3)OCO2		human liver microsomes	10 µM, 30 min, pH 7.4, with: microsomes 0.5 mg/mL	78.9 ± 2.7%
CSc1nccc(C(=O)N[C@@H](CCC(=O)O)C(=O)N[C@@H](Cc2ccc3ccccc3c2)C(=O)N[C@@H](CC(C)C)C(=O)NC2CC2c2ccccc2)n1 (stereo partly shown)		pooled human plasma	60 min, 37 °C	110%
N#Cc1ccc(Nc2nc(N)cc(Oc3c(F)cc(-c4ccc(C#N)cc4)cc3F)n2)cc1		human plasma	1 µM, 5.00 h, pH 7.4, 37 °C	85%
NC(=O)c1ccc(-c2cc(NCCCN3CCCCC3)c3ccccc3n2)cc1		human liver microsomes	1 h	100%
O=C(O)c1ccc(CN2CCC(CN[C@@H]3C[C@H]3c3ccccc3)CC2)cc1		aqueous buffer	4 days, 37 °C	98%
CCN(CC)CCOC(=O)c1ccc(N)cc1		human plasma	10 µM, 5 min	2.2%
COc1ccc(-c2cc(NCCCN3CCCCC3)c3ccccc3n2)cc1		human liver microsomes	1 h	86.7%
C=CC(=O)N1CCC(C(=O)N(C)CC(=O)N2CCN(c3nc(-c4cnc(N)nc4C(F)F)nc(N4CCOCC4)n3)CC2)CC1		microsomes, rat liver, male, Sprague-Dawley	1 µM, 10 min, 0.5 mg/mL microsomal protein, with: NADPH	120%
O=S(=O)(c1ccc(F)cc1)N1CCNCC1COc1ccc2c(c1)OCO2 (stereo not shown)		mouse liver microsomes	90 min	62 ± 2%
Cn1cncc1-c1c(F)cncc1NC(=O)c1c(N)nn2cc(F)cnc12		human EDTA plasma	15 ng/mL, 6 months, -80 °C, low QC	104%
CC[C@H](C)C(=O)O[C@H]1C[C@@H](C)C=C2C=C[C@H](C)[C@H](CC[C@@H]3C[C@@H](O)CC(=O)O3)[C@H]21		Beagle dog whole blood	5 µM, 0 min	100%
